Experimental data of several laboratories.
Parts stem from different laboratories: compare values within a part only.
UniProt O75914, sequence (whole entry, looked up): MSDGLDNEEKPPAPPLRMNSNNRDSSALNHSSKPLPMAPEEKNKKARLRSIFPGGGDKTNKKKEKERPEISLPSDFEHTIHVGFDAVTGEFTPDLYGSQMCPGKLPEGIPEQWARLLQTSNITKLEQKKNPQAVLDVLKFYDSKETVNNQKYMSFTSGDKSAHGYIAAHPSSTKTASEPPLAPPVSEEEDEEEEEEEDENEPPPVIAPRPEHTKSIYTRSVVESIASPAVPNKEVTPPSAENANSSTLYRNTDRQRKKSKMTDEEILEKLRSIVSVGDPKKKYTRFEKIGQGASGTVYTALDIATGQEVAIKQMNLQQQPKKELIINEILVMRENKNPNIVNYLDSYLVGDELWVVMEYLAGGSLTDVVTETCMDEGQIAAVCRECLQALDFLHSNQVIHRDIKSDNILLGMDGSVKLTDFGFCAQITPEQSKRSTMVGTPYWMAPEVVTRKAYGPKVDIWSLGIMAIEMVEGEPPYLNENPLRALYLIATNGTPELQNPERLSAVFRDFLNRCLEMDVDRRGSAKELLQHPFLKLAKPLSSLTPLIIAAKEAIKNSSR
UniProt Q8IY84, sequence (whole entry, looked up): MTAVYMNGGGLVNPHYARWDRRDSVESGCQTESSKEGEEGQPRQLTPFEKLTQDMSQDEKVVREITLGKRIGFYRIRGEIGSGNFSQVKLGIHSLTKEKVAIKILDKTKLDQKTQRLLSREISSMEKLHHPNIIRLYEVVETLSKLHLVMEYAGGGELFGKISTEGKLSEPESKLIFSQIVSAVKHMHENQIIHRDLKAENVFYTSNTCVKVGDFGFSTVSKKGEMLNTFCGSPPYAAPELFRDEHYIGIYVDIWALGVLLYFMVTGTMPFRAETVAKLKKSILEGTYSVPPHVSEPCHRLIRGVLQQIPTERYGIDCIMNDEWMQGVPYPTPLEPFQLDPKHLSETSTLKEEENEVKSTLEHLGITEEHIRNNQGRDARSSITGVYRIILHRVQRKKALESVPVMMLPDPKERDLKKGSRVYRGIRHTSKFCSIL
UniProt O15264, sequence (whole entry, looked up): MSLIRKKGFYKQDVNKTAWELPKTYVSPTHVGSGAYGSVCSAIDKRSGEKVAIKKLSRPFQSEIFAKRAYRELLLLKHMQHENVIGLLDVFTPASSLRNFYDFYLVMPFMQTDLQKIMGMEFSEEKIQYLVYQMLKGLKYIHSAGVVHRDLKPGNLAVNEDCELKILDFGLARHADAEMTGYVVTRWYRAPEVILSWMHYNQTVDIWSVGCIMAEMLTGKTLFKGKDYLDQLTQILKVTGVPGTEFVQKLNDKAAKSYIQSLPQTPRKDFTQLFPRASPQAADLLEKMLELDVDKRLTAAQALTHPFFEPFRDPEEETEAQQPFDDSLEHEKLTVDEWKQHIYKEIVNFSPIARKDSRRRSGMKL
UniProt Q8N5S9, sequence (whole entry, looked up): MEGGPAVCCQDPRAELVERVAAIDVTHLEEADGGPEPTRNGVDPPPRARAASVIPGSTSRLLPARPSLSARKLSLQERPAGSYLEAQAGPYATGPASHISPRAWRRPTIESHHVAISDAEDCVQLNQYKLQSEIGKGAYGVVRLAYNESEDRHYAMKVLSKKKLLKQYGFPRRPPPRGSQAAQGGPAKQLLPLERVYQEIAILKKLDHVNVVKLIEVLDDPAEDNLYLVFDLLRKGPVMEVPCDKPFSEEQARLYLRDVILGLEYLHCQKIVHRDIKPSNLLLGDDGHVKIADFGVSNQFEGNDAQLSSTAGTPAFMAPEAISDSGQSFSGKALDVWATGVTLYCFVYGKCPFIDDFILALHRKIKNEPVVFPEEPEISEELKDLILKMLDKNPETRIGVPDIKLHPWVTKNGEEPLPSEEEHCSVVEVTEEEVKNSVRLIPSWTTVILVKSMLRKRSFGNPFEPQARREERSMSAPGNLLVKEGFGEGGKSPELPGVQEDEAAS
UniProt Q9Y2K2, sequence (whole entry, looked up): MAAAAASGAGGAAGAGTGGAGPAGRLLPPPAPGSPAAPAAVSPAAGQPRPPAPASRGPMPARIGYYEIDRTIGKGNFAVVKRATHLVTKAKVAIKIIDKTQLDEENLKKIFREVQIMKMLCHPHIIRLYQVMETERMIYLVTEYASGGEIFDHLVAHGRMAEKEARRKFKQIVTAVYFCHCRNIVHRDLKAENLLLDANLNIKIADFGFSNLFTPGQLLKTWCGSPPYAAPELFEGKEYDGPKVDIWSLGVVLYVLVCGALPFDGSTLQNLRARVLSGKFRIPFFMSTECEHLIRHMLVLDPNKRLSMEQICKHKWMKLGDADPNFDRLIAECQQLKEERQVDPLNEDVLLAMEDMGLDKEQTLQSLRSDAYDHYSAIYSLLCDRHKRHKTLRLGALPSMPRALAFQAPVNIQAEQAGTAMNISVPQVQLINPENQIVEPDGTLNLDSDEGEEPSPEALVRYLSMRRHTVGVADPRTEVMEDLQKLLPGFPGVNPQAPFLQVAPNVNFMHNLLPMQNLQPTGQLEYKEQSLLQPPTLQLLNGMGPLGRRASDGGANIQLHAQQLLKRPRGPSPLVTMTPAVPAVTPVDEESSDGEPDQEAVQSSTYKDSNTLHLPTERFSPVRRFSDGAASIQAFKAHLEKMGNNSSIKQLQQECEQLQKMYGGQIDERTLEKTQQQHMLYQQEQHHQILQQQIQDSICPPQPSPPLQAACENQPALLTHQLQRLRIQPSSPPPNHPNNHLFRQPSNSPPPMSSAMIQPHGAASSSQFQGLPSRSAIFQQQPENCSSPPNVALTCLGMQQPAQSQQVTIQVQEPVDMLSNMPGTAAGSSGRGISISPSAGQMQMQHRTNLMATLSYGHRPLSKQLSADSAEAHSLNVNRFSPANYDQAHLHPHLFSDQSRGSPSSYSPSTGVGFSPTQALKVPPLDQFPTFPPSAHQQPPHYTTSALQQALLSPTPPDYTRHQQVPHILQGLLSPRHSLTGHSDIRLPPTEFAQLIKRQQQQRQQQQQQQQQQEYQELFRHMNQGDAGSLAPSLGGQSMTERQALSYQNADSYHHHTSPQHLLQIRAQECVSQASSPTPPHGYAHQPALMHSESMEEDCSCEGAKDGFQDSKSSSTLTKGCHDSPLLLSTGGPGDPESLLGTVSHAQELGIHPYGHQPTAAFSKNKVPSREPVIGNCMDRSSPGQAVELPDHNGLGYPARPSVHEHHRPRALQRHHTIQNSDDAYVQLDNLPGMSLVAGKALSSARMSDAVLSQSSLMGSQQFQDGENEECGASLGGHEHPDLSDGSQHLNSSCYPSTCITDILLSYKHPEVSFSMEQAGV
UniProt O00506, sequence (whole entry, looked up): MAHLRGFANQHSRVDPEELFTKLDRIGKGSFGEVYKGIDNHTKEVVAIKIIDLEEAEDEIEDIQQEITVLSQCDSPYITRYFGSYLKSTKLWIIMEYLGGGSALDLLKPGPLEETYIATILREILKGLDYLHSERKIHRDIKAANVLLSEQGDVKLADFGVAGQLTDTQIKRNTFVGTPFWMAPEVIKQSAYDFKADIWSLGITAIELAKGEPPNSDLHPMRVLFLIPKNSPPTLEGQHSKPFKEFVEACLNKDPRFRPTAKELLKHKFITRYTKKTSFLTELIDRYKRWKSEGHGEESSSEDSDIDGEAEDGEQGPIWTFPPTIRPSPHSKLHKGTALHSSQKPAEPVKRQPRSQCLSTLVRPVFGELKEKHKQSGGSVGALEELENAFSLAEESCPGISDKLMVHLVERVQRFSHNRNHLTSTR
UniProt P53778, sequence (whole entry, looked up): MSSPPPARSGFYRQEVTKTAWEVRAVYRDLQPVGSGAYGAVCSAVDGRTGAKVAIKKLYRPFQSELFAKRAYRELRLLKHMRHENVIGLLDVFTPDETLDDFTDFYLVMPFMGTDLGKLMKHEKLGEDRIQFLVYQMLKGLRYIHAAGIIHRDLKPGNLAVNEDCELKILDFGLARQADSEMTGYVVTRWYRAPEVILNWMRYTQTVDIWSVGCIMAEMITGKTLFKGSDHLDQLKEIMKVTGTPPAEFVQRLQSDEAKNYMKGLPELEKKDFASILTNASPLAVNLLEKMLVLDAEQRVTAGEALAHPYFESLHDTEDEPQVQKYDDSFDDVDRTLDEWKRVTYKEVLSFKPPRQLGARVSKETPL
UniProt P49761, sequence (whole entry, looked up): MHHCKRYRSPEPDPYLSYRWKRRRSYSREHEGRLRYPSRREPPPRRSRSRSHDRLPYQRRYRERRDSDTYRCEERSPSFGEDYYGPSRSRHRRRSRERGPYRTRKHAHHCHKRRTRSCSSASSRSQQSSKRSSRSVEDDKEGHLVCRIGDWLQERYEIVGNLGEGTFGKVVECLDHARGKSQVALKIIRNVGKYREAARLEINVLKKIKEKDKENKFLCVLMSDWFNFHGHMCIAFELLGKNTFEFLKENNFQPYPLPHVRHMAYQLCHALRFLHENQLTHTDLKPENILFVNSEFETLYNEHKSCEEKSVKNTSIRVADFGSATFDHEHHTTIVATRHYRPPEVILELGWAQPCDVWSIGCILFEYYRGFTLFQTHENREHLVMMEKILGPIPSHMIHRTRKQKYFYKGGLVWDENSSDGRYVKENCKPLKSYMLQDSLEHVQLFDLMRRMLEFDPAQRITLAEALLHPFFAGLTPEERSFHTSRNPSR
UniProt Q04771, sequence (whole entry, looked up): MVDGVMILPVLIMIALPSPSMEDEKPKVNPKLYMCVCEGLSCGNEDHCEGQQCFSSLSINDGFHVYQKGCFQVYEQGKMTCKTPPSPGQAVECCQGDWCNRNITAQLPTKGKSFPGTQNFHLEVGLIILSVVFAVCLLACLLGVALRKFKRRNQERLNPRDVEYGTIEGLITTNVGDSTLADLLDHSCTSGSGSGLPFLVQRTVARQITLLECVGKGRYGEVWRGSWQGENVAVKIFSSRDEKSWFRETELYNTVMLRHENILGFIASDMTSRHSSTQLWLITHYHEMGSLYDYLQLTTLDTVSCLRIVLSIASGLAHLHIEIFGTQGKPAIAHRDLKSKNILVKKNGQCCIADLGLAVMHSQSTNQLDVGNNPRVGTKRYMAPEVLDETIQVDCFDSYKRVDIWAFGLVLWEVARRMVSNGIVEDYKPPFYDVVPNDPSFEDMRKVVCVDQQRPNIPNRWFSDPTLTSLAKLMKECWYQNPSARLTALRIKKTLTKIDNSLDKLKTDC

Block 1
Target: RING finger protein unkempt homolog, zinc fingers 1-6, GST-SBP tag (UNK, Homo sapiens, UniProt Q9C0B0, residues 30-357)
Method: RNA Bind-n-Seq
Form: RNA
Medium: in vitro
Tested at: not given
Notes: RNA with constant flanks, ends assumed
Relative to: input RNA pool
Direction: higher = stronger binding
Construct (chain): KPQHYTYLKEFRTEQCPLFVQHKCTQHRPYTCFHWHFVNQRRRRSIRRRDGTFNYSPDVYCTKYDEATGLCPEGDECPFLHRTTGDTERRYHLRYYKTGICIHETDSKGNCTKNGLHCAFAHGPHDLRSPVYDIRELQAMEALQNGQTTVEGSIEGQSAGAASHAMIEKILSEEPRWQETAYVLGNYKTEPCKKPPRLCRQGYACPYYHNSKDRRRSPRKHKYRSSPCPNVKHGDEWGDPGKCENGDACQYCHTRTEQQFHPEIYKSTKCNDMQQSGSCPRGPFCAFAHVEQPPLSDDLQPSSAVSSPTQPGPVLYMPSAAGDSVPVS
Strand | bound/input enrichment
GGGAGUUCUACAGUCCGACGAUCAUGGAACAAGGAAAAUAAGGCCUAAGCCAGCAUCCCCAGGUUGCCACAGCCCAUCCUUCACCGCAGGAAAAUAAGGCCUAAGCCAGCAUCCCCAGGUUGCCACAGCCCAUCCUUCAAGCACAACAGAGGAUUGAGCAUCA | 0.116 ratio
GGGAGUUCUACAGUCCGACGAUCCUGUGUAAUGAAAAACUAUUAAAAAAGGCUCGUAUACAUCCAUUUCAUAUUUUGAUCGCAUCCGAAACUUACAAGACAGGUCAUGGUCUCAGAGGGAAACUGAAGUGGCGCCCUGAUGAACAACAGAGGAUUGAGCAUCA | 0.292 ratio
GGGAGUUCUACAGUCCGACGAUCCUUGGAGAAGGUCCAAAAGCUUCUUUGCAUGUGUCCAGUGGAUUUCCAUGGGAUCUUCCAGUCCGAUGAAAGACGGAGAGAUGCAGUGAUUGCAUUGGGCAUUUUUCUGAUUGAAUCUGACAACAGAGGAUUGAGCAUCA | 0.113 ratio
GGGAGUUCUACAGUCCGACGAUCAAUGAAUCAUUGAACAAUCUUUUUAUUACAGAAGAAGAUUAUCAGGCUCUGCGAACAUCAACCGAUGCUUAUGACAACUUUGACAAUAUCUCGCUUGCUCAGCGUUUGGAAAAACAUGAACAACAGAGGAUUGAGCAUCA | 0.0482 ratio
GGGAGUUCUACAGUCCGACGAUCCUUCGGGCUGCUAAUAUUCUUGUAGGAGAAAAUCUUGUGUGCAAAAUAGCAGACUUUGGUUCCGCAAGGUUAAUUGAAGACAAUGAAUACACAGCAAGACAAGGUGCAAAAUUUCCAAUCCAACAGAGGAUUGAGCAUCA | 1.2 ratio
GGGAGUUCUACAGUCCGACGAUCAACAUUUCUACUCUACCAGAGAGUCUUUUAUCCAGUCUUGUAAAAUUGAAUAGCUUGACCUCCGCCCGAAAUUGCUUCCAGUUAUAUCCAGUGGGAGGUCCAUCUCAGUUUUCCACCAUUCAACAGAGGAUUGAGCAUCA | 0.209 ratio
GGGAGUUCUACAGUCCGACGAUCAUCCCAGAGAACGCCAUAUUCGGUCCCUGUGUACUGAGCCAUACUUCCCUGUAUGACAGCACCGCCUUCGUAGCCCUCAAGUCCACGGACAAGAGAACAGUACCUUACAUCUUCCGGGUACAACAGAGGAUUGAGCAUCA | 0.245 ratio
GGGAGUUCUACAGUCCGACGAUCCGGAAUUGGGAUGACAUGAAGCACCUGUGGGACUACACAUUUGGACCAGAGAAACUCAAUACCGACACCAGAAACUGCAAGAUUUUACUUACAGAACCUCCCAUGAAUCCAACCAAAAACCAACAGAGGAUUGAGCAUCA | 0.286 ratio

Block 2
Target: PABPC1L2, full length, GST fusion (mouse, UniProt A0ABA7IW68)
Method: RNAcompete
Form: RNA
Medium: in vitro
Tested at: 20 nM
Notes: 7-mer, probes averaged, single round
Relative to: mean of 7-mers
Direction: higher = stronger binding
Construct (chain): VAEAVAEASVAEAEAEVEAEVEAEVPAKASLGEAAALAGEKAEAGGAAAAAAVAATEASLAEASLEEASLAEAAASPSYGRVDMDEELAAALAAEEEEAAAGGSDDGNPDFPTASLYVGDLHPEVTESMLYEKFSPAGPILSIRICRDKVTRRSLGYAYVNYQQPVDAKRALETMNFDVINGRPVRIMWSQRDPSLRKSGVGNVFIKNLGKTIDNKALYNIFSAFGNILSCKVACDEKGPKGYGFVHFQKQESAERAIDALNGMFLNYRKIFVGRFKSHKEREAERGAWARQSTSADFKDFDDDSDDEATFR
Strand | 7-mer Z-score
CACGGUC | -0.126
UUGAUUA | 0.0315
CUGAUGU | -0.248
GUGUGGA | 0.222
GGUCACA | 0.169
CCCCCUA | -0.405
CAUCUCA | -0.238
UGAGUGG | -0.0881

Block 3
SMILES: CCOCCn1cc(C(=O)Nc2ccc(-n3nc(-c4cccnc4)cc3C(F)(F)F)cn2)ccc1=O
Effect on: cell-free assay
Method: competition with immobilised ligand
Tested at: 1 µM
target | remaining binding
Non-receptor tyrosine-protein kinase TYK2, JH2 (TYK2, Homo sapiens, UniProt P29597) | 77%
NIM1K (Homo sapiens, UniProt Q8IY84) | 100%
STK25 (Homo sapiens, UniProt O00506) | 95%
PAK3 (Homo sapiens, UniProt O75914) | 100%
PIK3CA (Homo sapiens, UniProt P42336, C420R) | 93%
Tyrosine-protein kinase JAK2, JH1 (JAK2, Homo sapiens, UniProt O60674) | 91%
MAPK12 (Homo sapiens, UniProt P53778) | 65%
OXSR1 (Homo sapiens, UniProt O95747) | 92%
CASK (Homo sapiens, UniProt O14936) | 85%
CLK3 (Homo sapiens, UniProt P49761) | 100%
MAPK13 (Homo sapiens, UniProt O15264) | 97%
CAMKK1 (Homo sapiens, UniProt Q8N5S9) | 100%
MINK1 (Homo sapiens, UniProt Q8N4C8) | 89%
ACVR1 (Homo sapiens, UniProt Q04771) | 75%
SIK3 (Homo sapiens, UniProt Q9Y2K2) | 92%

Mixed results
SMILES | test | test system | conditions | quantity | value
Cc1cc(-c2cc(O)cc(CCC3CCCCN3)c2)ccn1 (stereo not drawn) | – | human, microsomes or S9 | 2 µM, 0.5 h | remaining compound | 6.43%
CC(C)n1cnc(-c2ccc(F)cc2)c1-c1ncc(C(=O)Nc2ccc(N3CCN(C)CC3)cc2)[nH]1 | phase 2a trial | idiopathic pulmonary fibrosis patients | 30 mg once daily, adverse event grade 3 | patients with ALT increased | 0%

Repeated from above (block 3):
target | remaining binding
MAPK13 (Homo sapiens, UniProt O15264) | 97%
PAK3 (Homo sapiens, UniProt O75914) | 100%
STK25 (Homo sapiens, UniProt O00506) | 95%
